Published values pooled from the literature.
Compare with care: the assays were run in different laboratories. Numbers after ± are the reported error.

For CC(C)[C@H](O)C(=O)N[C@H]1Cc2ccc3c(c2)[C@]2(C4=C(c5nc(CO)co5)N=C(O4)[C@H](C(C)(C)C)NC1=O)c1cc(F)ccc1N[C@@H]2O3, the NOAEL was 36 mg/m² (mice).
With CN[C@@](C)(C[18F])C(=O)O the tissue uptake was 1.1 ± 0.1 %ID/g (SCID mouse MDA-MB-468 xenograft, muscle; 15 min, post injection).
For CSCC[C@H](NC(=O)[C@@H](N)CCC(=O)O)C(=O)N[C@@H](CCCNC(=N)N)C(=O)N[C@@H](CC(C)C)C(=O)N[C@@H](CO)C(=O)N[C@@H](CCCCN)C(=O)N[C@@H](CC1CCCCC1)C(=O)N[C@@H](Cc1ccccc1)C(=O)N[C@@H](CCCNC(=N)N)C(=O)N[C@@H](CC(=O)O)C(=O)N[C@@H](Cc1ccccc1)C(=O)N[C@@H](CC1CCCCC1)C(=O)N[C@@H](CC(C)C)C(=O)N[C@@H](CCC(N)=O)C(=O)N[C@@H](CCCNC(=N)N)C(=O)N[C@@H](CCCCN)C(=O)N[C@@H](CCCCN)C(=O)O, hemolysis read “not toxic” (rabbit erythrocytes; concentration not given, 30 min, 37 °C; reference: Triton X-100).
With CCOc1cc(Oc2ccc(C(F)(F)F)cc2Cl)ccc1[N+](=O)[O-] the tissue/plasma ratio was 4 to 5 (Sprague-Dawley rat, male, thyroid gland; oral, 7.5 to 62.5 mg/kg daily, 8 days; reference: thyroid over serum).
For O=c1[nH]c(Cc2ccccn2)nc2c1cnn2C1CCOCC1, the Tmax was 37.8 min (healthy men, extensive metabolizers, plasma; oral, 50 mg single dose, tablet, median).
For CC[C@H](C)CCCCC(=O)N[C@@H](CCN)C(=O)N[C@H](C(=O)N[C@@H](CCN)C(=O)N[C@H]1CCNC(=O)[C@H]([C@@H](C)O)NC(=O)[C@H](CCN)NC(=O)[C@H](CCN)NC(=O)[C@H](CC(C)C)NC(=O)[C@@H](Cc2ccccc2)NC(=O)[C@H](CCN)NC1=O)[C@@H](C)O, the Vss was 0.373 L/kg (ND4 Swiss Webster mouse, female, serum; intravenous, 3 mg/kg, aqueous solution).
[123I]c1cncc(OC[C@@H]2CCN2)c1 gave a tissue/plasma ratio of 16.7 (SPECT; human, pons; intravenous bolus, 2.1 mCi; reference: plasma).
CC(C)C(=O)OC[C@H]1O[C@@H](n2ccc(NO)nc2=O)[C@H](O)[C@@H]1O has a remaining compound of 104 ± 5.39% (rat blood dialysate; 250 ng/mL, time not given, three freeze-thaw cycles, added: NHC 1000 ng/mL).
The AUC(0-24) of COC(=O)N[C@H](C(=O)N1CCC[C@H]1C(=O)Nc1ccc([C@@H]2CC[C@@H](c3ccc(NC(=O)[C@@H]4CCCN4C(=O)[C@@H](NC(=O)OC)C(C)C)cc3)N2c2ccc(C(C)(C)C)cc2)cc1)C(C)C is reported as 1210 ng·h/mL (healthy human volunteers, plasma; oral, dose not given, warfarin interaction study; reference: given without warfarin).
With CC(C)C[C@H](NC(=O)[C@H](CCC(=O)O)NC(=O)[C@H](CCC(=O)O)NC(=O)[C@H](CC(=O)O)NC(=O)[C@H](CCC(=O)O)NC(=O)[C@H](CCC(=O)O)NC(=O)[C@H](CCC(=O)O)NC(=O)[C@@H](N)CC(=O)O)C(=O)O the plasma concentration was 2360 ng/mL (rat, plasma; subcutaneous, 11.0 mg/kg single dose, 90 min).
The tissue uptake of CSCC[C@@H]1NC(=O)[C@H](CC(=O)O)NC(=O)CNC(=O)[C@H](CCCNC(=N)N)NC(=O)[C@H](C)NC(=O)[C@H](CCC(=O)O)NC(=O)[C@H](CCCNC(=N)N)NC(=O)[C@@H]2CSSC[C@@H]3NC(=O)[C@H](CO)NC(=O)[C@H]([C@@H](C)O)NC(=O)[C@@H]4CCCN4C(=O)[C@H](C)NC(=O)[C@H](Cc4c[nH]c5ccccc45)NC(=O)[C@H](CC(=O)O)NC(=O)CNC(=O)[C@H](CCCNC(=N)N)NC(=O)CNC(=O)[C@H](CCC(N)=O)NC(=O)[C@@H]4CCCN4C(=O)[C@@H](NC(=O)CNC(=O)C(C)F)CSSC[C@H](NC(=O)CNC(=O)[C@H](C)NC(=O)[C@H](CC(C)C)NC(=O)[C@H](CSSC[C@@H](C(=O)NCC(N)=O)NC(=O)[C@H]([C@@H](C)O)NC(=O)[C@H](CCCNC(=N)N)NC(=O)[C@@H]4CCCN4C1=O)NC(=O)[C@H](CC(=O)O)NC(=O)[C@H](CO)NC(=O)[C@H](CC(=O)O)NC(=O)[C@H](CCC(N)=O)NC(=O)[C@H](CO)NC3=O)C(=O)N[C@@H](C(C)C)C(=O)N2 (stereo partly drawn) [fluorine-18 labelled] is reported as 0.28 ± 0.08 %ID/g (nude mouse, U-87 MG xenograft, intestine; intravenous, 2.5 h, added: cyclo(RGDyK) co-injected).
C[N+](C)(C)[C@@H](Cc1c[nH]c(=S)[nH]1)C(=O)[O-] — result for “decrease in tissue partition coefficient”: 69% (rat treated with 1,25-dihydroxyvitamin D3, spleen; intravenous; reference: untreated control rats).

Excerpt of the above:
CC(C)C(=O)OC[C@H]1O[C@@H](n2ccc(NO)nc2=O)[C@H](O)[C@@H]1O has a remaining compound of 104 ± 5.39% (rat blood dialysate; 250 ng/mL, time not given, three freeze-thaw cycles, added: NHC 1000 ng/mL).
